Published values gathered from unrelated publications.
Each numbered part is a random draw from the data of one study; scales do not carry over between parts. Substitutions count along the parent as printed.

Sample 1 — technique: protein-binding microarray; molecule type: double-stranded DNA, one strand shown; medium: in vitro; tested at: 940 nM top; notes: 60-bp whole probe; added: salmon DNA 0.4 mg/ml; baseline: random background probes; direction: higher = stronger binding; constant ends, left off below: GCCTAGCAC … GTCTTGATTCGCTTGACGCTGCTG
Target: Interferon regulatory factor 5, full length, phosphomimetic (IRF5, Homo sapiens, UniProt Q13568-2, residues 1-514, S451D/S453D/S456D/S462D)
For `TTTCATTGCTGCCCTCAGAAAGTGCTA`, “fitted relative affinity” read 4.65 z-score.
Under “fitted relative affinity”, `TCAGTTGTACTTTCTATCACTGTGCTA` is recorded as 1.38 z-score.
`TGTCATTTACATTTTAGTAGGTGCTAG`: “fitted relative affinity” 0.706 z-score.
`TTAGGACTGAACTATCGGTTAGTGCTA`: “fitted relative affinity” -0.226 z-score.
For `GACGATCTCAGTCTCGAGCCGTGCTAG`, “fitted relative affinity” read 0.679 z-score.
For `TCATACTTCTCTTTTTGACTGTGCTAG`, “fitted relative affinity” read 1.26 z-score.
`GACGGTATCGGTATCGGGCCGTGCTAG`: “fitted relative affinity” 8.96 z-score.
`GACGGTATCGGGTATCGGGAAGTGCTA` — result for “fitted relative affinity”: 5.23 z-score.

Sample 2 — Substitution: S171G; technique: DHFR PCA, deep sequencing; medium: yeast; baseline: wild-type fitted maximum; direction: higher = stronger binding
Target: ABI1, truncated, D143A, DHFR fusion (Arabidopsis thaliana)
Notes: methotrexate growth selection, single substitutions
Parent: PYL1, truncated, DHFR fusion (Arabidopsis thaliana); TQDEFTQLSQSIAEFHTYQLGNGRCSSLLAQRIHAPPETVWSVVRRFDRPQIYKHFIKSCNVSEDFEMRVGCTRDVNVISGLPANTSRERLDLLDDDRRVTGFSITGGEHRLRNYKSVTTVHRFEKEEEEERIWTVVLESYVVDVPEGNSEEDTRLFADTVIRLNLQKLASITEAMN
added: (+)-ABA 58 µM — “relative binding score”: 77.2%.
It gave 2.93% for “relative binding score” (added: (+)-ABA 0.032 µM).
It gave 14% for “relative binding score” (added: (+)-ABA 0.39 µM).
It gave 26% for “relative binding score” (added: (+)-ABA 1.4 µM).
The “relative binding score” was 13.2% (added: (+)-ABA 0.11 µM).
added: (+)-ABA 4.8 µM — “relative binding score”: 59.8%.

Further values, each from its own experiment
P1: viral docking peptide; KGVKRKLFAEDSS; partner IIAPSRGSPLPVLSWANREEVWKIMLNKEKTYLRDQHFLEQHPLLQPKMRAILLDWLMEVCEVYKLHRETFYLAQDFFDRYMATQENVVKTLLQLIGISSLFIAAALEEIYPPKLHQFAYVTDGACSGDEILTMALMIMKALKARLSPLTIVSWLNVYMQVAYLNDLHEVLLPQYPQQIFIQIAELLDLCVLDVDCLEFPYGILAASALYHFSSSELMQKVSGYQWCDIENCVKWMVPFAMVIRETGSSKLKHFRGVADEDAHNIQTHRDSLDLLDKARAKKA
`MT-CO2 (Homo sapiens, UniProt P00403)` — result for cross-linked residues: “E220 to K75” (COX6C (Homo sapiens, UniProt P09669); cross-linking MS; cell fractions; added: DMTMM).
Under “normalised enrichment score”, `P1 F8Q` is recorded as 0.554 (CCNE1, cyclin fold, Cln2 fusion (human); yeast growth competition, sequencing; yeast; strong parent motif; baseline: not given, higher = stronger binding).
Under cross-linked residues, `PDIA3 (Homo sapiens, UniProt P30101)` is recorded as “E372 to E401” (PLK1 (Homo sapiens, UniProt P53350); cross-linking MS; cell fractions; added: DHSO).

Repeated from above (sample 1):
For `TCATACTTCTCTTTTTGACTGTGCTAG`, “fitted relative affinity” read 1.26 z-score.
`GACGGTATCGGGTATCGGGAAGTGCTA` — result for “fitted relative affinity”: 5.23 z-score.
